Published values gathered from unrelated publications.
Parts stem from different laboratories: compare values within a part only. Several values in a cell are separate wells, animals, samples, runs or records.
Sequence of UniProt Q9UHD2 (whole entry, looked up): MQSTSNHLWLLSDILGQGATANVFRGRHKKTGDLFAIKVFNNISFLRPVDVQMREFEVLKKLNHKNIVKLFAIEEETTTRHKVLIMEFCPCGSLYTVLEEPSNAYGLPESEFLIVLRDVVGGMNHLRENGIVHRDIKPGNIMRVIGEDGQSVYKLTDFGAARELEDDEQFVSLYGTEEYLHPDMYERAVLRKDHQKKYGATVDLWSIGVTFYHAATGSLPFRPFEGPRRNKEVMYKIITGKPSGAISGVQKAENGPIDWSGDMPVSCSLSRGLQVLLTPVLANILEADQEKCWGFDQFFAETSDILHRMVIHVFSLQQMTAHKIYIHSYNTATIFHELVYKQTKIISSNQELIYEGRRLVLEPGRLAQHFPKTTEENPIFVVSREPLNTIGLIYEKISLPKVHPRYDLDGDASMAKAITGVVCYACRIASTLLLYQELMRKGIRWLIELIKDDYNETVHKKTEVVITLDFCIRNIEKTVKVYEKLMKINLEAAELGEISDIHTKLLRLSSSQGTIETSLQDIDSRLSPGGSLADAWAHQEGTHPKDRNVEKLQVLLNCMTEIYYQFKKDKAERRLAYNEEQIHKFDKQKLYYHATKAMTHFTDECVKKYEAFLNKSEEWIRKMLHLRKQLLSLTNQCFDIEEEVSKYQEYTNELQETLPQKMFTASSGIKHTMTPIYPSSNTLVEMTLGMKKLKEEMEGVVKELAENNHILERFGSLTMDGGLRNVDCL
Sequence of UniProt Q6PHR2 (whole entry, looked up): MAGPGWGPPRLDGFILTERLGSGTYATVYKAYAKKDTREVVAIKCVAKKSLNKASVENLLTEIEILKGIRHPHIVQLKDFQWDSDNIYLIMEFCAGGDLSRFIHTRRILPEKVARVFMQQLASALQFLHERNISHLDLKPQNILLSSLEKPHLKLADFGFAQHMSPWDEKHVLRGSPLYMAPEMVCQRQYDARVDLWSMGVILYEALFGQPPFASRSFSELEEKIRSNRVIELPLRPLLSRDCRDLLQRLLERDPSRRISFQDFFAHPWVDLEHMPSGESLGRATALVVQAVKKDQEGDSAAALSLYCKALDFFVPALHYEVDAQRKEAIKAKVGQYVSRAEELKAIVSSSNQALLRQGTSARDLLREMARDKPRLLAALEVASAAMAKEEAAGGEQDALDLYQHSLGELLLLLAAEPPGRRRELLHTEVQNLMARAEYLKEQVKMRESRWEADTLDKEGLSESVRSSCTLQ
Sequence of UniProt Q13873 (whole entry, looked up): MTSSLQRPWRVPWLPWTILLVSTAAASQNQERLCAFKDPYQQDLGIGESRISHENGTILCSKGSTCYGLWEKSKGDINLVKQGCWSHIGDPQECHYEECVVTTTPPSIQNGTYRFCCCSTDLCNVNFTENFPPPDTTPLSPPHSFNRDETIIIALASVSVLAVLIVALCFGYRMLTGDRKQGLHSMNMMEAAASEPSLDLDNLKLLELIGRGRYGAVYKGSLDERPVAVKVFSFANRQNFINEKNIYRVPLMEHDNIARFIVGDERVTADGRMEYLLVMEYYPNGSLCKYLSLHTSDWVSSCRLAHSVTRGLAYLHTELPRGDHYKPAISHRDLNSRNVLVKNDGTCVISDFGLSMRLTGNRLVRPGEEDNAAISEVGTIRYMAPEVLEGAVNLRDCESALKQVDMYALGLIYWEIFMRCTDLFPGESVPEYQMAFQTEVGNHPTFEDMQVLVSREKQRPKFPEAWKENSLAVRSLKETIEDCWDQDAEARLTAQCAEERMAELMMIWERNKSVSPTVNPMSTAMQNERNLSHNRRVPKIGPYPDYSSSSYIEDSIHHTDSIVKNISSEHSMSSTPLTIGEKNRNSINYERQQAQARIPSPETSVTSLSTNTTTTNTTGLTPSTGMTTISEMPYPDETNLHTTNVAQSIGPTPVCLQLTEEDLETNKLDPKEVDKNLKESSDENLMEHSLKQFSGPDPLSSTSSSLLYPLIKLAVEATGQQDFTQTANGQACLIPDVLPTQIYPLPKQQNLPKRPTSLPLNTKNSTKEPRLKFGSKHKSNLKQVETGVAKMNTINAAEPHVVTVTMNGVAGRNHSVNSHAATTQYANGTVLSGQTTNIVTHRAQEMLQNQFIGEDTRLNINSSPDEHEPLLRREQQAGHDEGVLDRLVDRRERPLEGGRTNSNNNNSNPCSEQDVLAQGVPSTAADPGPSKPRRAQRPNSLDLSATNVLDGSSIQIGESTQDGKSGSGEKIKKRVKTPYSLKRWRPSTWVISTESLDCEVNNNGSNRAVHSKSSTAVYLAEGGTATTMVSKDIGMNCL
Sequence of UniProt P42336 (whole entry, unmodified, looked up): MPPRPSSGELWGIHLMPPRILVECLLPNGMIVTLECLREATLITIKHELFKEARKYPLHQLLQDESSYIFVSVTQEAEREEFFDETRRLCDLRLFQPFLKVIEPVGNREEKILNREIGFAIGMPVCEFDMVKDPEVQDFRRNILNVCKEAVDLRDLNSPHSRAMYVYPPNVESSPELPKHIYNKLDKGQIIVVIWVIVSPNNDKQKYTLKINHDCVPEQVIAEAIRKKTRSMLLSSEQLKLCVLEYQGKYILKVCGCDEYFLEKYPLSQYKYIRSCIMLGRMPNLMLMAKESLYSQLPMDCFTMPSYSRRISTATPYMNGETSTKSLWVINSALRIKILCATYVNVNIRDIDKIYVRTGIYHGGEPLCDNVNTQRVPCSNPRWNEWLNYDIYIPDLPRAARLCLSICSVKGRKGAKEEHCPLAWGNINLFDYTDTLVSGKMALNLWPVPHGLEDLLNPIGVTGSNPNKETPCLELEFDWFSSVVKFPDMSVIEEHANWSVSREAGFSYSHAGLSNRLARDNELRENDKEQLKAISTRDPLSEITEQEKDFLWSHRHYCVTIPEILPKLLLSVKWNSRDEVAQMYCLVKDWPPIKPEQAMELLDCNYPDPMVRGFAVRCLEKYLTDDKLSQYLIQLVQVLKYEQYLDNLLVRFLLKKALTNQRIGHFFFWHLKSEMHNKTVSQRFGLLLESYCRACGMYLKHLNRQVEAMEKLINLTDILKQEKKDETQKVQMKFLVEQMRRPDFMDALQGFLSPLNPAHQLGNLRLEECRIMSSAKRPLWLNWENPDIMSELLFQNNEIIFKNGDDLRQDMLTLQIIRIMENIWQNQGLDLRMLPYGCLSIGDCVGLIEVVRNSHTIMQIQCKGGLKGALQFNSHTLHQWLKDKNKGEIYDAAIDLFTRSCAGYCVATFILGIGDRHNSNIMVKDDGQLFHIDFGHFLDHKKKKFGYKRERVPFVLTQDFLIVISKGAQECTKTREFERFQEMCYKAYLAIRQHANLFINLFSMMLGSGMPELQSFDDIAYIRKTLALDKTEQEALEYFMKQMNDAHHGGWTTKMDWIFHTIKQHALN
Sequence of UniProt Q99683 (whole entry, looked up): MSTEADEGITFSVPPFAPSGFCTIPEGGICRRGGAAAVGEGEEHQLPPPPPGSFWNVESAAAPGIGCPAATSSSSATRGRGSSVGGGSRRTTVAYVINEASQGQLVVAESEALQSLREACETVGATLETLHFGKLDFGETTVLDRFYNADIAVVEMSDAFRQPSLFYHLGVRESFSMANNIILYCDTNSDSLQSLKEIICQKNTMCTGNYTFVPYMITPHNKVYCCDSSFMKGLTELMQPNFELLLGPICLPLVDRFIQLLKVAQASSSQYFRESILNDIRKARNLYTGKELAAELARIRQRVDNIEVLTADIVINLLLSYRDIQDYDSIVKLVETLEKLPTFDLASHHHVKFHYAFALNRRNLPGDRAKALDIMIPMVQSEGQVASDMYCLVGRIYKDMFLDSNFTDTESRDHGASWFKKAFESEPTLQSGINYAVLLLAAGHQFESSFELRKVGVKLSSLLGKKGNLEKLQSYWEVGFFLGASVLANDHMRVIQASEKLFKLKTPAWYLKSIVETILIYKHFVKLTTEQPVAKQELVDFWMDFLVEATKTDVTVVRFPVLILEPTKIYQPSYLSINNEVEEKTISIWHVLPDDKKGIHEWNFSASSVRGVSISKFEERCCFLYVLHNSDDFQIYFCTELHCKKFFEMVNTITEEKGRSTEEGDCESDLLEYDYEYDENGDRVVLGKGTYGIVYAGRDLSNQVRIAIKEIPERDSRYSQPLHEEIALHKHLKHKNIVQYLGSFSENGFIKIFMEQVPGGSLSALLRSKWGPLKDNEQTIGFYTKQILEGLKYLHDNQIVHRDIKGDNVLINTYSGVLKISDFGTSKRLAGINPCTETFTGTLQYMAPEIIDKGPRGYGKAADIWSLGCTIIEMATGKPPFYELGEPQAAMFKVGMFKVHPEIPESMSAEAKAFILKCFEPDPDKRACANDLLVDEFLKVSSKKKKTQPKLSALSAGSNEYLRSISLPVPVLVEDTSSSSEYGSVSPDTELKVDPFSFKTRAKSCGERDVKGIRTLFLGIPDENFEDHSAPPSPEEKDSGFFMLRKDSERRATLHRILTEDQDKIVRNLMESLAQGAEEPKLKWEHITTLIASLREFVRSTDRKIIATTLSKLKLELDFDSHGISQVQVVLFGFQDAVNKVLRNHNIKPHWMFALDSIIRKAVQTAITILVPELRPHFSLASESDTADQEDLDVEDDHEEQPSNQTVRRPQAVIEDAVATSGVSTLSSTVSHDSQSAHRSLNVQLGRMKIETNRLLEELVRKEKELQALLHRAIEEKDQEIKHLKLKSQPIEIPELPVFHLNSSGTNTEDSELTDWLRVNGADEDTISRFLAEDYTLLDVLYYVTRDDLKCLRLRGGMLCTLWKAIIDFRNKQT
Sequence of UniProt P36507 (whole entry, looked up): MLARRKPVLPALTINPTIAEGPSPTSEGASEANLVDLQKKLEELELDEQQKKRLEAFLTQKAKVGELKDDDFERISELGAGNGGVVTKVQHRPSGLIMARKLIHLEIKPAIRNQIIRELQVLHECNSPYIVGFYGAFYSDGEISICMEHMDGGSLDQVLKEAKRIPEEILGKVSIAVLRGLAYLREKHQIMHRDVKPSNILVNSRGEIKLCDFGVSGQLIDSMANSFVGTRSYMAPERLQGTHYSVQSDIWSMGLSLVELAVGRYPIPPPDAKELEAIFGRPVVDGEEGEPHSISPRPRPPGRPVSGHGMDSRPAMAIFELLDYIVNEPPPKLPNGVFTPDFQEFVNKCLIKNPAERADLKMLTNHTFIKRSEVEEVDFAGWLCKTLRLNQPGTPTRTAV

Series 1
Cell line: HaCaT
Tested at: 100 µM
Time: 18 h
Measurement: viability
O=C(NCCO[N+](=O)[O-])c1cccnc1: 117%
CCC(CC)[C@H](NC(C)=O)[C@@H]1[C@H](O)[C@@H](C(=O)O)C[C@H]1NC(=N)N: 112%
CCCCC1(COC(=O)CCC(=O)O)C(=O)N(c2ccccc2)N(c2ccccc2)C1=O: 117%
Cc1cnc(NC(=O)C2=C(O)c3ccccc3S(=O)(=O)N2C)s1: 65.5%
CC(=O)O[C@]1(C(C)=O)CC[C@H]2[C@@H]3CCC4=CC(=O)CCC4=C3[C@@H](c3ccc(N(C)C)cc3)C[C@@]21C: 92.6%
Nc1nc2[nH]cc(CCc3ccc(C(=O)N[C@@H](CCC(=O)O)C(=O)O)cc3)c2c(=O)[nH]1: 107%
Clc1ccc(C(c2ccccc2Cl)C(Cl)Cl)cc1 (stereo not shown): 17.5%
O=C(OCc1ccccc1)c1ccccc1: 47.4%

Series 2
SMILES: CC(=O)N[C@@H](Cc1c[nH]c2ccccc12)C(=O)N[C@@H](CCC(=O)C=[N+]=[N-])C(=O)OC(C)C
Species: mice bearing EL4 tumours
Sample: EL4 tumour
Dose: dose not given
Added: 13C5-glutamine
Measurement: isotope enrichment
refers to: malate M+4: 6.71% and 10.6% and 10.8% and 9.13% and 7.82% and 7.74%
refers to: succinate M+0: 79.5% and 84.3% and 83.2% and 85.1% and 84.5% and 79.8%
refers to: glutamate M+0: 81.6% and 84.5% and 83% and 77.4% and 82.8% and 79.6%
refers to: fumarate M+0: 96% and 94.7% and 99.1% and 90.5% and 90.7% and 90.8%

Series 3
SMILES: CC(C)[C@H](CO)Nc1nc(Nc2cccc(Cl)c2)c2ncn(C(C)C)c2n1
Effect on: enzyme activity
Action: inhibitor
Tested at: 0.5 µM
Reference: control
Measurement: remaining activity
MAP3K14 (Homo sapiens, UniProt Q99558): 112%
MAP3K5 (Homo sapiens, UniProt Q99683): 108%
ULK3 (Homo sapiens, UniProt Q6PHR2): 59.6%
ARAF (Homo sapiens, UniProt P10398): 96.5%
NEK1 (Homo sapiens, UniProt Q96PY6): 107%
ACVR1B (Homo sapiens, UniProt P36896): 99.8%
MERTK (Homo sapiens, UniProt Q12866): 84.7%
LCK (Homo sapiens, UniProt P06239): 86.9%
FGFR3 (Homo sapiens, UniProt P22607): 99.2%
NEK6 (Homo sapiens, UniProt Q9HC98): 91.3%
WEE1 (Homo sapiens, UniProt P30291): 82.6%
MAPK3 (Homo sapiens, UniProt P27361): 104%
MAP2K2 (Homo sapiens, UniProt P36507): 104%
TAOK2 (Homo sapiens, UniProt Q9UL54): 91.3%
TBK1 (Homo sapiens, UniProt Q9UHD2): 93%

Series 4
Structure (SMILES): COc1ccc2c(O[C@@H]3C[C@H]4C(=O)N[C@]5(C(=O)O)CC5/C=C\CCCCC[C@H](NC(=O)OC5CCCC5)C(=O)N4C3)cc(-c3csc(NC(=O)C(C)C)n3)nc2c1C (stereo partly shown)
Effect on: cell-free assay
Method: competition with immobilised ligand
Tested at: 1 µM
Measurement: remaining binding
BMPR2 (Homo sapiens, UniProt Q13873): 84%
DYRK1B (Homo sapiens, UniProt Q9Y463): 74%
MET (Homo sapiens, UniProt P08581, Y1235D): 100%
Non-receptor tyrosine-protein kinase TYK2, JH1 (TYK2, Homo sapiens, UniProt P29597): 100%
Ribosomal protein S6 kinase alpha-4, N-terminal kinase domain (RPS6KA4, Homo sapiens, UniProt O75676): 96%
SIK2 (Homo sapiens, UniProt Q9H0K1): 100%
PIK3CA (Homo sapiens, UniProt P42336, Q546K): 70%

For quick reference, copied from above (series 1):
CCCCC1(COC(=O)CCC(=O)O)C(=O)N(c2ccccc2)N(c2ccccc2)C1=O: 117%
Cc1cnc(NC(=O)C2=C(O)c3ccccc3S(=O)(=O)N2C)s1: 65.5%
CC(=O)O[C@]1(C(C)=O)CC[C@H]2[C@@H]3CCC4=CC(=O)CCC4=C3[C@@H](c3ccc(N(C)C)cc3)C[C@@]21C: 92.6%
Nc1nc2[nH]cc(CCc3ccc(C(=O)N[C@@H](CCC(=O)O)C(=O)O)cc3)c2c(=O)[nH]1: 107%
Clc1ccc(C(c2ccccc2Cl)C(Cl)Cl)cc1 (stereo not shown): 17.5%
O=C(OCc1ccccc1)c1ccccc1: 47.4%
